Assay results pooled from the literature.
A part holds a random share of what one study measured. Substitutions count along the parent as printed.

Sample 1 — method: Sort-seq; measured: YFP reporter; sample: E. coli; setting: PhoQ-PhoP variant library; with: 10 µM Mg2+; reference: high Mg2+ state; reading: higher = stronger signaling
Substance: PhoQ, residues 284 288 289 292 302 303 MLMVEA
The fold induction was 22.2 (PhoP, residues 12 14 15 18 19 STHWV (Escherichia coli, UniProt P23836)).
The fold induction was 5.17 (PhoP, residues 12 14 15 18 19 QYCSL (Escherichia coli, UniProt P23836)).
For PhoP, residues 12 14 15 18 19 SHWTV (Escherichia coli, UniProt P23836): fold induction read 14.2.

Sample 2 — target: CCNF, cyclin fold, Cln2 fusion (human); method: yeast growth competition, sequencing; sample: yeast; setting: weak parent motif; reference: not given; reading: higher = stronger binding
Starting sequence: E2F8 docking peptide (human); FVPQRKLEVSTED
`FVPQRKLEVSTAD [E12A]`: “normalised enrichment score” 0.271.
Under “normalised enrichment score”, `FAPQRKLEVSTED [V2A]` is recorded as 0.14.
`FVPQKKLEVSTED [R5K]` — result for “normalised enrichment score”: -0.125.
For `FVPQAKLEVSTED [R5A]`, “normalised enrichment score” read -0.478.
Under “normalised enrichment score”, `FVPQAKAEVSTED [R5A L7A]` is recorded as -0.579.
`FVPQRKLAVSTED [E8A]` — result for “normalised enrichment score”: 0.0937.
For `FVPQRKAEVSTED [L7A]`, “normalised enrichment score” read 0.384.
Under “normalised enrichment score”, `FVPQRKLEVATED [S10A]` is recorded as 0.28.
Under “normalised enrichment score”, `FVPQRALEVSTED [K6A]` is recorded as -0.653.
`FVPQRKLELSTED [V9L]` — result for “normalised enrichment score”: 3.41.
`FVPQKKLEFSTED [R5K V9F]` — result for “normalised enrichment score”: 5.15.

Sample 3 — method: DHFR PCA, deep sequencing; sample: yeast; with: (+)-ABA 2500 µM; reference: wild-type fitted maximum; reading: higher = stronger binding
Target: ABI1, truncated, D143A, DHFR fusion (Arabidopsis thaliana)
Setting: methotrexate growth selection, single substitutions
Starting sequence: PYL1, truncated, DHFR fusion (Arabidopsis thaliana); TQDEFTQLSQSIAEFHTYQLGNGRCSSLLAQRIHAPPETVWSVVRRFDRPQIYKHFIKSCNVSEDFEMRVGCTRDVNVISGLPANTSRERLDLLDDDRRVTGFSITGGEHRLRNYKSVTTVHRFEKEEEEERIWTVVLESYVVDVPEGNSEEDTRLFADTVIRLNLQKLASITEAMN
`A30S` — result for “relative binding score”: 105%.
For `Q10R`, “relative binding score” read 95.3%.
Under “relative binding score”, `A158T` is recorded as 98.7%.
`D3P`: “relative binding score” 98.9%.
`S140E`: “relative binding score” 18.2%.
For `N177H`, “relative binding score” read 106%.
`V145E` — result for “relative binding score”: 71.6%.
For `S27T`, “relative binding score” read 89.6%.
`T119K` — result for “relative binding score”: 81.8%.
For `C25M`, “relative binding score” read 94.2%.
Under “relative binding score”, `N61G` is recorded as 96%.
Under “relative binding score”, `S104Y` is recorded as 77.5%.
`S11R`: “relative binding score” 94.7%.
For `F103L`, “relative binding score” read 71.1%.
For `D48K`, “relative binding score” read 77.5%.
`Y53C`: “relative binding score” 77.6%.

Sample 4 — method: RNA Bind-n-Seq; molecule type: RNA; sample: in vitro; concentration: not given; setting: RNA with constant flanks, ends assumed; reference: input RNA pool; reading: higher = stronger binding
Target: RING finger protein unkempt homolog, zinc fingers 1-6, GST-SBP tag (UNK, Homo sapiens, UniProt Q9C0B0, residues 30-357)
UniProt Q9C0B0, sequence (30-357, looked up): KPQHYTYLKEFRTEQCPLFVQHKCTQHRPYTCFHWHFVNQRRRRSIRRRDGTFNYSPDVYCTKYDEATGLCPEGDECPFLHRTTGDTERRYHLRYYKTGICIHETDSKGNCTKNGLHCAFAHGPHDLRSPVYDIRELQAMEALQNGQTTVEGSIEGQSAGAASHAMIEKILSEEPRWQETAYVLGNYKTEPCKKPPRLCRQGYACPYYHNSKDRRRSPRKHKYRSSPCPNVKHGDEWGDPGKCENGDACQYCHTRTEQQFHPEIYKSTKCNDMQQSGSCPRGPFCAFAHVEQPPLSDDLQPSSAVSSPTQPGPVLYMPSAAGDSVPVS
All sequences stand within: GGGAGUUCUACAGUCCGACGAUC … CAACAGAGGAUUGAGCAUCA
`CUUGGAGAAGGUCCAAAAGCUUCUUUGCAUGUGUCCAGUGGAUUUCCAUGGGAUCUUCCAGUCCGAUGAAAGACGGAGAGAUGCAGUGAUUGCAUUGGGCAUUUUUCUGAUUGAAUCUGA` gave a bound/input enrichment of 0.113 ratio.
`CUGCAACCAACCUCAGGAUGCUAUUAAAUGCUAUUUAAAUGCAACUAGAAGCAAAAAUUGCCGUAAUACCUCUGGACUUGCAGCACGAAUUAAGUAUUUACAGAAUACUUCUGAUAAUUG` gave a bound/input enrichment of 0.23 ratio.
For `CAGUGGGAUGGGGAGCAAAGUCCCAGAGGGGAGCGCAACAGGUGGAAGUAUGAGGAGUUUUCCGAUCAUCCAGGCCAUAUCCACAGUAGUCCUUGCCACGAAAGGCCCAACAAUGUCUCU`, the bound/input enrichment was 0.104 ratio.
For `UUCAAAAAGAGAAGAACUGAAAAUGGAAAAUCUAGAAAUUUAAGGCAACGAGGUGAUGAUCAACCGUUGCAGGAGAGCUUUUUGUACAUGCUUUUAGGACAGAAUGGAGACUUAUACACC`, the bound/input enrichment was 1.88 ratio.
`GAUGUCAGGACCAUUCUGCUCUCCAUCCAGAGCCUUCUAGGAGAACCCAACAUUGACCGUCCCUUGAACACACAUGCUGCCGAGCUCUGGAAAAACCCCACAGCUUUUAAGAAGUACCUG` has a bound/input enrichment of 0.216 ratio.
For `UCUUUUUGAGGGUCCUUUUGUUUUCCUUUGCUUUUCUUUUGGCCUUCCCUCUGUCUUUCACUCCGACCAGCUAUUUGAAAGGGCAGACGAUGCUAAAGGUGUACUGUGCAGCUUGUUUAG`, the bound/input enrichment was 0.318 ratio.
With `AACUCUAGAGCUCCCCCAAGACUGACUGUAGUGUCCCCUAACCGAGCUACUUCAACGGAAACCCGCUCAUCUGUAGAGACUGAUUUGCAACCCUUCCGGGAAGCCAUAGCUCUGCAUGGU` the bound/input enrichment was 0.629 ratio.
`UCAUUGCCCUCAACAUGAAGACUGCCAUAUUCCAAGUCACAUUAUUUUACCAAUGGAAUUACCGAAUUAACAGUAUUUUAAAUUACGUUUAUAACACUGCAGAGACCUUAAGUGCUAAAC` gave a bound/input enrichment of 0.315 ratio.

For quick reference, copied from above (sample 3):
`A30S` — result for “relative binding score”: 105%.
For `C25M`, “relative binding score” read 94.2%.
`Y53C`: “relative binding score” 77.6%.
